Experimental data collected from several papers.
Compare with care: the assays were run in different laboratories. ± gives the spread as reported.

| Structure (SMILES) | test | system | setting | Tmax |
| --- | --- | --- | --- | --- |
| CO[C@H]1CC[C@H](N2C(=O)CNc3ncc(-c4ccc(C(C)(C)O)nc4)nc32)CC1 |  | patients, plasma | oral, 7.5 mg, day -1, median | 1 h |
| CN(CCC(=O)O)C(=O)c1ccc2c(c1)CC[C@@H]1[C@@H]2CC[C@]2(C)C(c3cncc(F)c3)=CC[C@@H]12 |  | postmenopausal women, plasma | 3 mg single dose, median | 3 h |
| CC(=O)c1c(C)c2cnc(Nc3ccc(N4CCNCC4)cn3)nc2n(C2CCCC2)c1=O |  | cancer patients, plasma | oral, 100 mg, cycle 1 day 15, added: neratinib 240 mg | 3.9 h |
| C[C@H]1CN(C(=O)CC#N)[C@]12CCN(c1ncnc3[nH]ccc13)C2 |  | healthy Japanese males | oral, 100 mg single dose, median | 1 h |
| CC[C@H](C)CCCCC(=O)N[C@@H](CCN)C(=O)N[C@H](C(=O)N[C@@H](CCN)C(=O)N[C@H]1CCNC(=O)[C@H]([C@@H](C)O)NC(=O)[C@H](CCN)NC(=O)[C@H](CCN)NC(=O)[C@H](CC(C)C)NC(=O)[C@@H](Cc2ccccc2)NC(=O)[C@H](CCN)NC1=O)[C@@H](C)O |  | mild renal insufficiency patients, plasma | IV infusion, 0.75 mg/kg, 1 h infusion, median | 1 h |
| N[C@@H](CC(=O)N1CCc2c(nc(C(F)(F)F)nc2C(F)(F)F)C1)CN1CC(F)(F)CCC1=O |  | healthy Korean adults, fasted, plasma | oral, 50 mg single dose, separate tablets, median, added: enavogliflozin 0.3 mg | 2 h |
| N#Cc1cccc(-c2ccc3ncc(-c4cc(F)cc(F)c4)c(N4CCC(N)CC4)c3c2)c1O | item: parent compound | healthy male, plasma | oral, 20 mg, median | 1 h |
| C[C@@](Cc1ccc(O)c(O)c1)(NN)C(=O)O |  | male Parkinson's disease patients, plasma | oral, median | 2 h |
| C[C@@H](N)C1CCN(S(=O)(=O)c2cccc3cnccc23)CC1 |  | healthy volunteers, plasma | oral, 150 mg, fed, single dose | 0.88 h |
| CCc1nc(C(N)=O)c(Nc2ccc(N3CCC(N4CCN(C)CC4)CC3)c(OC)c2)nc1NC1CCOCC1 |  | Japanese patients, plasma | oral, 80 mg, cycle 1 day 28, multiple doses, median | 6.08 h |
| COc1nnc2ccc(N3CCC(c4ccc(OCCN5CCN(C)C(=O)[C@H]5C)cc4)CC3)nn12 |  | patients, plasma | oral, 15 mg twice daily, multiple dose, monotherapy, median | 2.12 h |
| Oc1ccc([C@@H](O)c2cc(-c3ncnc4cc(N5CCOCC5)ccc34)c(F)cc2Cl)nn1 | median | healthy volunteers, plasma | oral, 100 mg, high-fat fed tablet | 4 h |
| Cc1c(C(=O)O)ccc2c3n(nc12)[C@@H]1[C@H](C3)N(CC2CC2)[C@@]2(C(=O)Nc3cc(Cl)ccc32)[C@H]1c1cccc(Cl)c1F |  | cancer patients, plasma | oral, 45 mg day 1 every 3 weeks, median, cycle 1 | 5 h |
| C=CC(=O)NC1CCN(c2ncc3ncnc(Nc4ccc(Oc5ccc6c(c5)ncn6C)c(C)c4)c3n2)CC1 |  | healthy male volunteers, plasma | intravenous infusion, 100 µg, 15 min infusion, [14C] microtracer | 0.233 h |
| CCCCCCCCCCCCCCCC(=O)N[C@@H](CCC(=O)NCCCC[C@@H]1NC(=O)[C@H]([C@@H](C)CC)NC(=O)[C@@H](NC(=O)[C@@H]2CCCN2C(=O)[C@H](Cc2ccccc2)NC(=O)[C@H](Cc2c[nH]cn2)NC(=O)[C@@H](NC(=O)[C@H](CC(=O)O)NC(=O)CC(C)C)[C@@H](C)O)CSSC[C@@H](C(=O)N[C@@H](CCCCN)C(N)=O)NC(=O)CNC(=O)[C@H](CCCCN)NC(=O)[C@H](CO)NC(=O)[C@H](CCCNC(=N)N)NC(=O)[C@@H]2CCCN2C(=O)[C@H](CCC(=O)O)NC(=O)[C@H](Cc2ccccc2)NC1=O)C(=O)O |  | healthy volunteers, plasma | subcutaneous, 10 mg single, lyophilised formulation, median | 24 h |
| CN[C@H](CC(C)C)C(=O)N[C@H]1C(=O)N[C@@H](CC(N)=O)C(=O)N[C@H]2C(=O)N[C@H]3C(=O)N[C@H](C(=O)N[C@H](C(=O)O)c4cc(O)cc(O)c4-c4cc3ccc4O)[C@H](O)c3ccc(c(Cl)c3)Oc3cc2cc(c3O[C@@H]2O[C@H](CO)[C@@H](O)[C@H](O)[C@H]2O[C@H]2C[C@](C)(N)[C@H](O)[C@H](C)O2)Oc2ccc(cc2Cl)[C@H]1O |  | guinea pig, serum | intraperitoneal, 15 mg/kg, single dose | 0.5 h |
| N[C@@H](Cc1ccc(O)c(O)c1)C(=O)O |  | Parkinson's disease patients, plasma | oral, high carbidopa AUC subgroup (11.5 µmol·h/L), median | 0.5 h |
| Cc1ccc(NC(=O)c2ccc(CN3CCN(C)CC3)cc2)cc1Nc1nccc(-c2cncc(-c3oncc3C)c2)n1 |  | Parkinson's disease patients, plasma | oral, 100 mg/day, 7 days, steady state | 4.4 ± 1.7 h |
| CCc1nc2c(C)cc(N3CCN(CC(=O)N4CC(O)C4)CC3)cn2c1N(C)c1nc(-c2ccc(F)cc2)c(C#N)s1 |  | healthy volunteers, fed, plasma | oral, 600 mg single dose, day 1, suspension | 1 h |
| CS(=O)(=O)c1ccc([C@@H](O)[C@@H](CF)NC(=O)C(Cl)Cl)cc1 |  | Arbor Acres chickens, plasma | oral, 20 mg/kg, added: quercetin 40 mg/kg pretreatment | 0.75 ± 0.18 h |
| CCCCC[C@H](O)CC[C@@H]1[C@H]2Cc3cccc(OCC(=O)O)c3C[C@H]2C[C@H]1O | LC-MS/MS | Japanese PAH patients on background ERA, plasma | inhaled, 54 µg, mean | 0.16 h |
| CCNC(=O)[C@@H]1CCCN1C(=O)[C@H](CCCNC(=N)N)NC(=O)[C@H](CC(C)C)NC(=O)[C@@H](CC(C)C)NC(=O)[C@H](Cc1ccc(O)cc1)NC(=O)[C@H](CO)NC(=O)[C@H](Cc1c[nH]c2ccccc12)NC(=O)[C@H](Cc1c[nH]cn1)NC(=O)[C@@H]1CCC(=O)N1 |  | healthy female volunteers | subcutaneous, 1 mg single dose | 3.49 ± 0.23 h |
| C[C@H]1[C@H]2N(C(=O)CN(C)N2C(=O)NCc2ccccc2)[C@@H](Cc2ccc(OP(=O)(O)O)cc2)C(=O)N1Cc1cccc2cccnc12 |  | patients, plasma | intravenous infusion, 280 mg/m2 over 4 h, mean | 1 h |
| C=C(F)C(=O)N1CCN(c2nc(OC[C@@H]3CCCN3C)nc3c2CCN(c2cccc4cccc(Cl)c24)C3)C[C@@H]1CC#N |  | healthy volunteers, plasma | oral, 400 mg twice daily | 6 h |
| CC(=O)Nc1ccc(C[C@H](NC(=O)[C@H](CO)NC(=O)[C@@H](Cc2cccnc2)NC(=O)[C@@H](Cc2ccc(Cl)cc2)NC(=O)[C@@H](Cc2ccc3ccccc3c2)NC(C)=O)C(=O)N[C@H](Cc2ccc(NC(C)=O)cc2)C(=O)N[C@@H](CC(C)C)C(=O)N[C@@H](CCCCNC(C)C)C(=O)N2CCC[C@H]2C(=O)N[C@H](C)C(N)=O)cc1 |  | healthy men, fasted, serum | oral, 40 mg single dose | 2.3 ± 1.1 h |
| CC(C)(CO)c1cc2cc(NC(=O)C3(c4ccc5c(c4)OC(F)(F)O5)CC3)c(F)cc2n1C[C@@H](O)CO |  | human, plasma | oral, standard ETI dose | 2 h |
| CC(F)(F)c1nc2nc(CO)cc(Nc3ccc(S(F)(F)(F)(F)F)cc3)n2n1 | LC-MS/MS, non-compartmental | malaria patients | 800 mg of parent drug, median | 136 h |
| O=C(c1cccnc1-c1ccncc1)N1CCC(O)(Cc2ccccc2)CC1 |  | healthy Japanese adults, plasma | oral, 300 mg twice daily, day 21, median | 0.5 h |
| O=C(c1ccccc1)c1ccc2n1CCC2C(=O)O (stereo not drawn) |  | New Zealand White rabbit, male, plasma | oral, 10 mg/kg drug equivalent | 1 h |
| CN(C)C(=O)c1cc2cnc(Nc3ccc(N4CCNCC4)cn3)nc2n1C1CCCC1 |  | patients, plasma | oral, steady state, median, added: tamoxifen | 3.55 h |

For quick reference, copied from above:
| Structure (SMILES) | test | system | setting | Tmax |
| --- | --- | --- | --- | --- |
| CS(=O)(=O)c1ccc([C@@H](O)[C@@H](CF)NC(=O)C(Cl)Cl)cc1 |  | Arbor Acres chickens, plasma | oral, 20 mg/kg, added: quercetin 40 mg/kg pretreatment | 0.75 ± 0.18 h |
| CC[C@H](C)CCCCC(=O)N[C@@H](CCN)C(=O)N[C@H](C(=O)N[C@@H](CCN)C(=O)N[C@H]1CCNC(=O)[C@H]([C@@H](C)O)NC(=O)[C@H](CCN)NC(=O)[C@H](CCN)NC(=O)[C@H](CC(C)C)NC(=O)[C@@H](Cc2ccccc2)NC(=O)[C@H](CCN)NC1=O)[C@@H](C)O |  | mild renal insufficiency patients, plasma | IV infusion, 0.75 mg/kg, 1 h infusion, median | 1 h |
